# Experimental data gathered from unrelated publications.
# Numbered parts are unrelated; each lists some results of a single study. Positions count from the first letter of the parent shown.

# Sample 1
# Target: Centromere-binding protein 1, full length, N-terminal tag (CBF1, Saccharomyces cerevisiae, UniProt P17106, residues 1-351)
# Sequence of UniProt P17106 (whole entry, looked up): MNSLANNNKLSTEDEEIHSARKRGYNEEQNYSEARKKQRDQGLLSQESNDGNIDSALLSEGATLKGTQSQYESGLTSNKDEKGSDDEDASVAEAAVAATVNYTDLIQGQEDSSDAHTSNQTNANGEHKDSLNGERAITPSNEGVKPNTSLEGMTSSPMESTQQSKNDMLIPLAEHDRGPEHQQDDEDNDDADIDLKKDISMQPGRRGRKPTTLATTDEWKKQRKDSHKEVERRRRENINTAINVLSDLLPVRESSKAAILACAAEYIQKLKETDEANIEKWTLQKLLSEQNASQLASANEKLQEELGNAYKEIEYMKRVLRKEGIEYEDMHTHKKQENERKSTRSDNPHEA
# Method: protein-binding microarray
# Form: double-stranded DNA, one strand shown
# Medium: in vitro
# Tested at: 0.8 µM
# Notes: whole 60-bp probe, no competitor
# Reading: higher = stronger binding
# Constant ends, left off below: … GTCTTGATTCGCTTGACGCTGCTG
Oligonucleotide,fluorescence intensity [a.u.]
GAATTATTGCTCACACAACTGATGTTGCTGACATAG,577
CTATAGGCGCTAGGGTGGGTGACGCATTTTAACTTC,518
CTAGTTTCTTAGATATGCGTGCCTTAAGGCGACTTC,531
CTAACCACCTCTTGTCACATGACCATTTTTGTTTTC,9030
CTACTGTATTTCTATCACGTATCCTTCTAGGTTTTC,660
GAAAATTCATAAACAATCACCAGTATATTTATTTAG,529
CCTAACTACTATACAAGTGTCACATAGCTTCGTACA,544

# Sample 2
# Target: RNA binding protein fox-1 homolog 2, RRM domain, GST-SBP tag (RBFOX2, Homo sapiens, UniProt O43251-10, residues 100-194)
# Method: RNA Bind-n-Seq
# Form: RNA
# Medium: in vitro
# Tested at: 365 nM
# Notes: natural RNA segment, single round, ends assumed
# Baseline: no-protein control
# Reading: higher = stronger binding
# Constant ends, left off below: GGGAGUUCUACAGUCCGACGAUC … UGGAAUUCUCGGGUGCCAA
# Construct (chain): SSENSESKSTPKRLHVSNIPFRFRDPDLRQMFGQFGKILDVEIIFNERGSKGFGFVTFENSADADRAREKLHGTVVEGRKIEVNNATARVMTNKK
Oligonucleotide,RBNS enrichment (R)
UUUAAACAACCAAGCUAAAGCUAUGUGAAAGUUGAGCUCAAAGUAGAGGAAAAGUUACUGGUGGUACCUUGCUGCCUGCUCUGCUGGUAGAAUUCUGUGCUCCCCGUGAC,0.289
CCAUGUGGGAGGCCAAGGAGGCUGCAGUGAGACUCUUCCACGGAACCAUGACGCUAGUGCAGUGACAGCCUGUGUCACGGCCGUGUUGAGGGGUCCCAGCAGAGGCCUGU,0.415
GUGGGAAAGACACAAGCAUCAUGCAGUGGCGAGUCAUUAGUCCCUGUGGGAGCCCGAGGACGCAGACUCGAGUUCCGCUUGGUCACUGUGAUUUCUGUUUUGUCUACAGA,0.423
UUUUUUAAAUUAAUGAAAAUAUGUAAUAUUAAUAGUUAUUAUUUACUGGUGCAGAUGGUUGACAUUUUUCCCUAUUUUCCUCACUUUAUGAAAGAAUUUAAAUAAAAAAA,0.659
ACAGUGUUGCCCAGGUCAGGAGUGUUUUCUUGGUGGUUCCAGCCCCCAUCAAUUGAACUGUUUCUGGGCUCAGUCAGACACAGACAUUCAUCUGUGUCUGACCAAAUCAG,0.304
UGUAUGGCAUUAAUUUCCUGCCACUAGAGAUAUUUUGAAGAUUGCUUGAAUGCUGGUGUCUGUUAGAAUGCUUCUGACUACAGAUGUAAUUAAAGGCUUUUCUUACUAUG,0.853
UGCUGUAUUGGUAUUUGUCUGUUGGGAUUUCAAGGGAGUGUAGAGAAGACAGAAGGAAAGCUGAGAGCUGGCCCGACAUGGUCUGGGACACAGAGUUGGAGCUGGCACUG,0.955
AAUCAGAUUAUUUUGUUUCUAGACAUCCUUGAAUUACACCAAAGAACAUGAAAUUUAGUUGUGGUUAAAUUAUUUAUUUAUUUCAUGCAUUCAUUUUAUUUCCCUUAAGG,0.667
CUUUCCGUCUGCGACCUCACUCACAGGACUUGAGUAUUUCCGACCUCACGGGUCACCCCAGCCCUCUGCAAAGCCUUGCCGUGCUAUGUUUCAGGUUCACGUUCAGCUCU,0.431

# Sample 3
# Target: CCNA2, cyclin fold, Cln2 fusion (human)
# Method: yeast growth competition, sequencing
# Medium: yeast
# Notes: weak parent motif
# Baseline: not given
# Reading: higher = stronger binding
# Parent: MASTL docking peptide (human); PMIAKNLMCELDE
Substitution,normalised enrichment score
C9Q,0.131
L7M,-0.604
C9N,-0.0805
A4Q,-0.18
A4P,0.305
M2G,0.235
D12S,0.206

# Other studies, line by line
Substance,target,assay,test system,setting,how to read,endpoint,value
"PhoQ, residues 284 288 289 292 302 303 TLMATV","PhoP, residues 12 14 15 18 19 NQGLL (Escherichia coli, UniProt P23836)","Sort-seq, item: YFP reporter",E. coli,"PhoQ-PhoP variant library, together with: 10 µM Mg2+","baseline: high Mg2+ state, higher = stronger signaling",fold induction,11.9

# Excerpt of the above (sample 2):
Oligonucleotide,RBNS enrichment (R)
ACAGUGUUGCCCAGGUCAGGAGUGUUUUCUUGGUGGUUCCAGCCCCCAUCAAUUGAACUGUUUCUGGGCUCAGUCAGACACAGACAUUCAUCUGUGUCUGACCAAAUCAG,0.304
UGUAUGGCAUUAAUUUCCUGCCACUAGAGAUAUUUUGAAGAUUGCUUGAAUGCUGGUGUCUGUUAGAAUGCUUCUGACUACAGAUGUAAUUAAAGGCUUUUCUUACUAUG,0.853
UUUAAACAACCAAGCUAAAGCUAUGUGAAAGUUGAGCUCAAAGUAGAGGAAAAGUUACUGGUGGUACCUUGCUGCCUGCUCUGCUGGUAGAAUUCUGUGCUCCCCGUGAC,0.289
